{"data": "Experimental data gathered from unrelated publications", "note": "Protocols differ between the studies behind these lines. ± marks the error that the study gave."}
{"Compound": "COC(=O)C1CN1S(=O)(=O)c1ccccc1 (stereo not shown)", "cell line": "Caco-2", "test": "cell growth or viability, MTT", "conditions": "48 h", "IC50": "110 µM"}
{"Compound": "COC1=C[C@@H]2[C@@H]3Cc4c(Br)cc(OC)c(OC(=O)c5cnc(C)cn5)c4[C@]2(CCN3C)CC1=O", "cell line": "RAW264.7", "test": "NO release, inhibitor, Griess", "conditions": "LPS-stimulated", "IC50": "48.7 µM"}
{"Compound": "Cc1cc(Nc2nc(C[C@@]3(C(=O)O)CCN(Cc4cccc(Cl)c4F)[C@H](C)C3)cc(C)c2F)[nH]n1", "cell line": "Calu-6", "test": "cell growth or viability, ATP luminescence", "conditions": "5 days", "IC50": "0.0649 µM"}
{"Compound": "CC[C@@H](C)[C@@H](NC(=O)[C@@H](CCCCN)NC(=O)[C@H](NC(=O)[C@@H](CCC(N)=O)NC(=O)[C@@H](CCCNC(=N)N)NC(=O)[C@@H](CC(C)C)NC(=O)CNC(=O)[C@@H](Cc1ccccc1)NC(=O)CNC(=O)[C@@H](Cc1ccc(O)cc1)NC(=O)CNC(=O)[C@@H](CCCCN)NC(=O)[C@H](NC(=O)[C@@H](Cc1ccccc1)NC(=O)[C@H](NC(=O)[C@@H](CC(=O)O)NC(=O)[C@H](N)CCCNC(=N)N)C(C)C)[C@H](C)O)[C@H](C)CC)C(=O)N[C@H](Cc1c[nH]c2ccccc12)C(=O)N[C@H](Cc1ccccc1)C(=O)N[C@H](CCC(N)=O)C(=O)N[C@H](CC(N)=O)C(=O)N[C@H](CCCNC(=N)N)C(=O)N[C@H](CCCNC(=N)N)C(=O)N[C@H](CCSC)C(=O)N[C@H](CCCCN)C(=O)N[C@H](Cc1c[nH]c2ccccc12)C(=O)N[C@H](CCCCN)C(=O)N[C@H](CCCCN)C(=O)O", "cell line": "CLL patient PBMCs", "test": "cell death, PI staining flow cytometry", "conditions": "90 min, room temperature, serum-free medium", "IC50": "1.3 µM"}
{"Compound": "CC[C@H](C)[C@H](NC(=O)CNC(=O)[C@H](C)NC(=O)[C@@H]1CCCN1C(=O)CNC(=O)[C@H](C)NC(=O)[C@H](CCC(=O)O)NC(=O)[C@H](C)NC(=O)[C@H](CC(=O)O)NC(=O)[C@H](C)NC(=O)[C@H](CCC(=O)O)NC(=O)[C@H](C)NC(=O)[C@H](CCC(=O)O)NC(=O)[C@@H]1CCCN1C(=O)[C@@H](N)CCC(=O)O)C(=O)NCC(=O)N[C@@H](C)C(=O)N[C@H](C(=O)N[C@@H](CC(C)C)C(=O)N[C@@H](CCCCN)C(=O)N[C@H](C(=O)N[C@@H](CC(C)C)C(=O)N[C@H](C(=O)N[C@H](C(=O)NCC(=O)N[C@@H](CC(C)C)C(=O)N1CCC[C@H]1C(=O)N[C@@H](C)C(=O)N[C@@H](CC(C)C)C(=O)N[C@H](C(=O)N[C@@H](CO)C(=O)N[C@@H](Cc1c[nH]c2ccccc12)C(=O)N[C@H](C(=O)N[C@@H](CCCCN)C(=O)N[C@@H](CCCNC(=N)N)C(=O)N[C@@H](CCCCN)C(=O)N[C@@H](CCCNC(=N)N)C(=O)N[C@@H](CCC(N)=O)C(=O)N[C@@H](CCC(N)=O)C(N)=O)[C@@H](C)CC)[C@@H](C)CC)[C@@H](C)O)[C@@H](C)O)C(C)C)C(C)C", "cell line": "MCF7 vector control (FAP-negative)", "test": "cell viability, MTT", "conditions": "72 h", "IC50": "35.1 ± 2 µM"}
{"Compound": "CNC(=O)c1cc(Oc2ccc(NC(=O)c3cc(-c4cccc(COC(=O)CCC(=O)OC5OC6OC7(C)CCC8C(C)CCC(C5C)C68OO7)c4)ccn3)cc2)ccn1 (stereo not shown)", "cell line": "Huh-7", "test": "cell growth or viability, MTT", "conditions": "72 h", "IC50": "10.8 µM"}
{"Compound": "N=C(N)NCCC[C@@H](N)C(=O)N[C@@H](Cc1c[nH]c2ccccc12)C(=O)N[C@@H](CCC(N)=O)C(=O)N[C@@H](Cc1c[nH]c2ccccc12)C(=O)N[C@@H](CCCN)C(=O)N[C@@H](Cc1c[nH]c2ccccc12)C(=O)N[C@@H](CCC(N)=O)C(=O)N[C@@H](Cc1c[nH]c2ccccc12)C(=O)N[C@@H](CCCNC(=N)N)C(N)=O", "cell line": "Caco-2", "test": "cell growth or viability, MTT", "IC50": "109 µM"}
{"Compound": "O=C(Cc1ccc2ccccc2c1)N[C@H](Cc1ccc(O)cc1)C(=O)N[C@H](Cc1ccccc1)C(=O)N[C@H](Cc1ccccc1)C(=O)N[C@H](Cc1ccc(OP(=O)(O)O)cc1)C(=O)O", "cell line": "SAOS-2", "test": "cell growth or viability, MTT", "IC50": "283 µg/mL"}
{"Compound": "Cc1cc(C)c(-n2ccn(-c3c(C)cc(C)cc3C)c2=[Se])c(C)c1.[Cl][Ag]", "cell line": "H157 spheroids", "test": "acid phosphatase", "conditions": "72 h, 3D spheroid", "IC50": "8.7 ± 1.5 µM"}
{"Compound": "CCC(C)C1OC(=O)C(NC(=O)c2cccc(NC=O)c2O)C(C)OC(=O)C(C(C)CC)OC(=O)C(C)(C)C(O)C(Cc2ccccc2)OC1=O (stereo not shown)", "cell line": "SGC-7901/DDP cisplatin-resistant", "test": "cell viability, CCK-8", "conditions": "72 h", "IC50": "0.001 ± 0.0001 µM"}
{"note": "Repeated from above:"}
{"Compound": "COC(=O)C1CN1S(=O)(=O)c1ccccc1 (stereo not shown)", "cell line": "Caco-2", "test": "cell growth or viability, MTT", "conditions": "48 h", "IC50": "110 µM"}
